Measured values from different studies.
Each numbered part is a random draw from the data of one study; scales do not carry over between parts. Substitutions count along the parent as printed.

Sample 1
Target: CCNE2, cyclin fold, Cln2 fusion (human)
Technique: yeast growth competition, sequencing
Matrix: yeast
Setting: weak parent motif
Relative to: not given
Reading: higher = stronger binding
Starting sequence: PKMYT1 docking peptide (human); SFEPRNLLSLFED; partner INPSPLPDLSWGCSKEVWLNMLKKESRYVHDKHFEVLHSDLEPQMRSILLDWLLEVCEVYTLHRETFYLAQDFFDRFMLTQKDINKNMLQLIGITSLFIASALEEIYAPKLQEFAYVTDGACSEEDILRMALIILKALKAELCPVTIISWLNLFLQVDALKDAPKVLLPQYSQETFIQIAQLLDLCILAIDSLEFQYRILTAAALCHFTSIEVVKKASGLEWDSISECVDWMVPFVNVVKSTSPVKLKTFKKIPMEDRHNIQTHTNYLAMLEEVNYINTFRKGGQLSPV
Substitution	normalised enrichment score
E12T	0.124
L10Q	0.0987
S1L	0.819
D13I	0.282
L10K	-0.889
S9Q	0.0807
L10S	-0.261
R5I	0.508
F2S	-0.568
R5S	-0.206
L8K	0.332
S9I	0.4
L8P	-0.179
L7V	-0.501
N6K	0.0794
E12N	-0.126
L8F	-0.18
F2W	0.0653
N6A	-0.0637

Sample 2
Target: RNA binding protein fox-1 homolog 2, RRM domain, GST-SBP tag (RBFOX2, Homo sapiens, UniProt O43251-10, residues 100-194)
Technique: RNA Bind-n-Seq
Form: RNA
Matrix: in vitro
Tested at: 365 nM
Setting: natural RNA segment, single round, ends assumed
Relative to: no-protein control
Reading: higher = stronger binding
All sequences stand within: GGGAGUUCUACAGUCCGACGAUC … UGGAAUUCUCGGGUGCCAA
Target sequence (chain): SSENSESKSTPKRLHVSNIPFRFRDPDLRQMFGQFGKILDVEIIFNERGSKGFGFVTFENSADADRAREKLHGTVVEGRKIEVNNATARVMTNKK
Oligonucleotide	RBNS enrichment (R)
UUCCCCUUGGGCUGUGUUGGAGUGAGCACCUCCUCUGUAGGCACCUCUCACACUGUUGUCUGUUACUGAUUUUUUUUGAUAAAAAGAUAAUAAAACCUGGUACUUUCUAA	0.294
UGAGCCCAGUUAGUACCCCGCUGGCUCACUGCACGAGAGAGUCCUGCCCCGAGCCCUAGGUGGGGCCAGGAGGUGCCUUGGAGAAGCCAGCCAGAGCAGAGAGGGCUGCU	2.4
UGGAGCAUUAACUUGAAAUUGUCUUCAAGGACUUGCUAUGUGCACUUCUUCACACCGGUACAUUCUCUGCAUCUGUUUAUAUGAAAUAACACAAGCUAAUCUGUACCUUU	0.253
GAGGGGGUGGUCCCUUAAUGGCCCCUGAAGAUGUUGGAUGUGUUUCUCAAAAGCUGCUUUGUCUCUUUCCUGAGUUUAAUAGUGAAACUACUAAACAUUAAUAGAUUUGC	0.279
CCCACAUAAAGAUAGUGCCCUAAGUUGUAAUCAGAACACUUGAGCAAGGAGUUAAAUGGAGGAGUAAACCUGGGAGUGCAAGAAAGCUCAAGAAACACUCAAGGGGAGGC	0.528
GGCCAGGCCCCUCUGUCCAGAAGGAGCUGCCCUGAGGACCAUCUUAGCGGCCCUGUCCUCUUUUUCCGCCCAUUCUCCCUCGGGUCUCCCCAGAGGGGCCGGCGGGGGCU	0.291
AUCACCGGUGGAGUCCCAGGGUGACAGUCCCAGCCUGCAUUUUUGGUGGAAAAUUAGAUGGAGUGAGAAGCCCCCUGCGGACUCCCAGCUGGAUGGAAAAGACAGGAGGA	0.803
UUUUCUCCUCCCAGUAAAUCUCAGUGAUGAUGUCAUGGUGAUUGAGUAGGAUGAGGCCUGUAUUACCGAAGUCUGGGAGCAUAAUUGAACUUGGUCUUCUGUGUUCUAGA	0.384
GGGUGAUCCAAUUAUAGGGCUGGGGCAACCCUGCUUUGGCCACCCUCAUUUACAAACUUAGGUUGGGAGCUUGGGUUUCCUGUCUCACUUCCAAAAGCCUUCAAGAUGGC	0.29
GAACUGUCUGUGCCAGUGAGCGCCAAGGAGAAGGAAAACCUGCCUUAGCCCGAGGGUAGAAGUUGAUGUCAUGUCAGAUAGUUGGUGAAGACCUUUCUAGGGGGCCUGGU	0.463
AUUCUCUUGAUAAAUUUGUACAUCAGACCGGGUCACCAGCUAUGAUGCAGAACGCCAGAUUUUUGAAUCUCAAGUAACUUUCUGUGGUGCUGGACAAAUUGACUUAAUUC	0.355
GUAAAGGGACAAACCGAGGAAGUAGAGGAAGCUGCGGCACUGUGACCCAUUCAAGGCUAGCACAGUUAAGAGAACUUCAGCUAAUUCUUAUUUUCCUGAGUUAGAUCCCA	0.345

Sample 3
Target: Sal-like protein 4, full length isoform B (SALL4, Homo sapiens, UniProt Q9UJQ4-2, residues 1-616)
Technique: universal PBM
Form: double-stranded DNA, one strand shown
Matrix: in vitro
Tested at: not given
Setting: 8-mer, flanks averaged, mean of replicates
Reading: higher = stronger binding
Oligonucleotide	E-score
GGCGCCCC	-0.431
CAGAGCGG	-0.175
AGGAGCGA	-0.0873
GGTCGGAA	-0.166
CCGATAAA	0.171
GGCTTCTA	-0.105
AGGCTAAT	0.106
AACGACGG	0.0048
ACGGGCCA	-0.198
AAAATCAT	0.373
GCCGTAAC	-0.00861
GGGTCGGA	-0.222
CGAAGATC	0.0543
CTGGGAGA	-0.316
ATCACGAC	-0.0166
AATACTTG	0.181
GACTAATC	0.0151
ACATGGAT	0.231
CTTTTTGC	-0.0921

Sample 4
Target: ABI1, truncated, D143A, DHFR fusion (Arabidopsis thaliana)
Technique: DHFR PCA, deep sequencing
Matrix: yeast
Setting: methotrexate growth selection, single substitutions
Together with: (+)-ABA 0 µM
Relative to: wild-type fitted maximum
Reading: higher = stronger binding
Starting sequence: PYL1, truncated, DHFR fusion (Arabidopsis thaliana); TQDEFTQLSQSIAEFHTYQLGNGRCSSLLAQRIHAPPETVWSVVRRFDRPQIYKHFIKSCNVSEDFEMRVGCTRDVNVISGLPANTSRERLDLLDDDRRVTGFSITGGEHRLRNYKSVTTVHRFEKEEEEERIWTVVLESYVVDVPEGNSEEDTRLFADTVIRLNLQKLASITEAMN; partner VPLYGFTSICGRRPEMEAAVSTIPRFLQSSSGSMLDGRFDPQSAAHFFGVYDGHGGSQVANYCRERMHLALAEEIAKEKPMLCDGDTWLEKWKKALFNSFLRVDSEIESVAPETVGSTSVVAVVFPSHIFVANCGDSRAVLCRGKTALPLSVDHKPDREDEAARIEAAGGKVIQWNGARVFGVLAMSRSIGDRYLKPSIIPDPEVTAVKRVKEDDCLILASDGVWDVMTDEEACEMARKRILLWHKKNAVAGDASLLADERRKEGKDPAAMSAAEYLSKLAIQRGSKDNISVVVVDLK
Substitution	relative binding score
I172Q	-8.12%
S117R	-0.84%
R24E	5.84%
L94Y	4.74%
R99P	-3.49%
E14C	2.33%
R163V	6.37%
S171F	-9.49%
E4D	14.3%
Q167L	19.6%
R88L	5.73%
R88T	40.2%
W41C	1.69%
D75I	24%
N77P	-0.0898%
H110V	14%
N77W	0.718%
T73V	34.9%
L112C	-0.928%
H55T	5.84%
I12K	-0.426%
V62T	-1.03%
D144G	-0.729%

Sample 5
Target: UBE2V2 UBC core domain (UniProt Q15819)
Technique: yeast two-hybrid
Matrix: yeast
Setting: mostly zero background
Relative to: not given
Reading: higher = stronger interaction
B1: IRF2BPL RING domain (UniProt Q9H1B7); chain SPMANSGPLCCTICHERLEDTHFVQCPSVPSHKFCFPCSRESIKAQGATGEVYCPSGEKCPLVGSNVP
B2: ARK2C RING domain (UniProt Q6ZSG1); chain EGEESDTDEKCTICLSMLEDGEDVRRLPCMHLFHQLCVDQWLAMSKKCPICRVDIETQLGAD
B3: TRIM8 RING domain (UniProt Q9BZR9); chain WKNCFEEELICPICLHVFVEPVQLPCKHNFCRGCIGEAWAKDSGLVRCPECNQAYNQKPGLE
B4: UHRF2 RING domain (UniProt Q96PU4); chain CGGDPEKKCHSCSCRVCGGKHEPNMQLLCDECNVAYHIYCLNPPLDKVPEEEYWYCPSCKTDSSEVVKAGER
B5: TRIM72 RING domain (UniProt Q6ZMU5); chain APGLLHQELSCPLCLQLFDAPVTAECGHSFCRACLGRVAGEPAADGTVLCPCCQAPTRPQALST
B6: RC3H2 RING domain (UniProt Q9HBD1); chain QAAQWTEFLSCPICYNEFDENVHKPISLGCSHTVCKTCLNKLHRKACPFDQTAINTDIDVL
B7: RNF25 RING domain (UniProt Q96BH1); chain LTDNNIPHGQCVICLYGFQEKEAFTKTPCYHYFHCHCLARYIQHMEQELKAQGQEQEQERQHATTKQKAVGVQCPVCREPLVYDLASL
Target sequence (chain): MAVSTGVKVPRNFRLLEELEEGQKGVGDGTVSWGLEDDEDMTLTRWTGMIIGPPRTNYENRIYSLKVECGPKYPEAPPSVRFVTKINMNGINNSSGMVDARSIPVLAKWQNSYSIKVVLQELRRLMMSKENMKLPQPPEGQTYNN
Sequence	lacZ reporter activity
QHHELTSLFECPVCFDYVLPPILQCQAGHLVCNQCRQKLSCCPTCRGALTPSIRNL (SIAH2 RING domain (UniProt O43255))	0
B1 (IRF2BPL RING domain)	0
DAIPSLSECQCGICMEILVEPVTLPCNHTLCKPCFQSTVEKASLCCPFCRRRVSSWTRYH (RNF168 RING domain (UniProt Q8IYW5))	0
YWAMDSTFELCKICAESNKDVKIEPCGHLLCSCCLAAWQHSDSQTCPFCRCEIKGWEAVS (CBLC RING domain (UniProt Q9ULV8))	0
PEELQAMDNVCIICREEMVTGAKRLPCNHIFHTSCLRSWFQRQQTCPTCRMDVLRASLPA (SYVN1 RING domain (UniProt Q86TM6))	0
B2 (ARK2C RING domain)	0
B3 (TRIM8 RING domain)	0
B4 (UHRF2 RING domain)	0
B5 (TRIM72 RING domain)	0
VTLSLTLPITCHICLGKVRQPVICINNHVFCSICIDLWLKNNSQCPACRVPITPENPCK (OBI1 RING domain (UniProt Q5W0B1))	0
B6 (RC3H2 RING domain)	0
FASPPDSNFVCSVCHGVLKRPARLPCSHIFCKKCILRWLARQKTCPCCRKEVKRKKVVH (RNF151 RING domain (UniProt Q2KHN1))	0
KTLSRFGIQPCSICLGDAKDPVCLPCDHVHCLRCLRAWFASEQMICPYCLTALPDEFSPA (RNF213 RING domain (UniProt Q63HN8))	0
B7 (RNF25 RING domain)	0

Excerpt of the above (sample 4):
Substitution	relative binding score
H110V	14%
V62T	-1.03%
H55T	5.84%
D75I	24%
R88T	40.2%
T73V	34.9%
R99P	-3.49%
R163V	6.37%
